Measured values collected from several papers.
Each line is one published result; not all experiments were run side by side. Numbers after ± are the reported error.
USP13 ZnF-UBD domain: Ubiquitin carboxyl-terminal hydrolase 13, ZnF-UBD domain (USP13, Homo sapiens, UniProt Q92995)
Sequence of UniProt Q92995 (whole entry, looked up): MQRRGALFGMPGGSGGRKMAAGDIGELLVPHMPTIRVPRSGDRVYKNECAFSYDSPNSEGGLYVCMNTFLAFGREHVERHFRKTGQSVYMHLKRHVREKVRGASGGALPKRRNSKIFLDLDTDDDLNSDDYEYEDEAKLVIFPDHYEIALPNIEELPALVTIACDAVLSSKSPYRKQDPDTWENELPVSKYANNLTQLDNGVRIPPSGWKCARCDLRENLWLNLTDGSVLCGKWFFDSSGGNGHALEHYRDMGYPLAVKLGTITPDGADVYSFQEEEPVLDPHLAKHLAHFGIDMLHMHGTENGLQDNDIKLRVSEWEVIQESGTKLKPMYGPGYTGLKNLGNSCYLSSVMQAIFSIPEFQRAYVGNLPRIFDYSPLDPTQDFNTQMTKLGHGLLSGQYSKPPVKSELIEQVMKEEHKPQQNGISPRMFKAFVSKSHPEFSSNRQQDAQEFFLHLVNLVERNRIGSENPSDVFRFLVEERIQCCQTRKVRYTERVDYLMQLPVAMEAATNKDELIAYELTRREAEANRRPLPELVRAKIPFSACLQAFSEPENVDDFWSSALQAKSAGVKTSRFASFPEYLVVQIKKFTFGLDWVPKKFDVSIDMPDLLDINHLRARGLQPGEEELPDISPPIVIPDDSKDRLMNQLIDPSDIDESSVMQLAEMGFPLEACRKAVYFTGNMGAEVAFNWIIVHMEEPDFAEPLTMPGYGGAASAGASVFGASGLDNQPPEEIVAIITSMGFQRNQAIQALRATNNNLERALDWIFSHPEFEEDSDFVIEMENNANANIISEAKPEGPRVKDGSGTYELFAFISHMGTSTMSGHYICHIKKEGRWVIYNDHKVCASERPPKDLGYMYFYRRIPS
CYP3A4: Cytochrome P450 3A4 (CYP3A4, Homo sapiens, UniProt P08684)
Sequence of UniProt P08684 (whole entry, looked up): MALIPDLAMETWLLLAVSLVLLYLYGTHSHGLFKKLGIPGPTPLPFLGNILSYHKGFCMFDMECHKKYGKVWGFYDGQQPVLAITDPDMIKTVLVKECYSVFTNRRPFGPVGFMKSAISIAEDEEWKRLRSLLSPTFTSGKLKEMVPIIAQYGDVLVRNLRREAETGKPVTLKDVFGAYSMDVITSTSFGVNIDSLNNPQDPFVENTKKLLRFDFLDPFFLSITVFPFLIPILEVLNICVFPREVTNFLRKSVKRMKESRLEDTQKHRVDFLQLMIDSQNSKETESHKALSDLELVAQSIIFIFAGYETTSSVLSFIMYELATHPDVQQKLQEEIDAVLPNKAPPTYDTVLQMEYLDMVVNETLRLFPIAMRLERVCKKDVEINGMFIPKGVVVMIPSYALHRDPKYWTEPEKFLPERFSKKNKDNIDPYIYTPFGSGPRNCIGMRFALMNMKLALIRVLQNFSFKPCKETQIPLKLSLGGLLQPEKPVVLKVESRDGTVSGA
Sequence of UniProt O14965 (whole entry, looked up): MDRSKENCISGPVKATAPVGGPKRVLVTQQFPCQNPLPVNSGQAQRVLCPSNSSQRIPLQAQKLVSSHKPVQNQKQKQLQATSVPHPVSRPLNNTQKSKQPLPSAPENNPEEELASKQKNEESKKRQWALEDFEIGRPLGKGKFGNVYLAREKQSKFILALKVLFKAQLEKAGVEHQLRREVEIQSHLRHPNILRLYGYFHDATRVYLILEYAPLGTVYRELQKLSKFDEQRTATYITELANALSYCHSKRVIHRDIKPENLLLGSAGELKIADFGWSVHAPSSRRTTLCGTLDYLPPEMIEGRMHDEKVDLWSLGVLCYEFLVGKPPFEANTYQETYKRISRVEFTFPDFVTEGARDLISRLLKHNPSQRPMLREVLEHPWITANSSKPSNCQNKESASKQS
Sequence of UniProt O70423 (whole entry, looked up): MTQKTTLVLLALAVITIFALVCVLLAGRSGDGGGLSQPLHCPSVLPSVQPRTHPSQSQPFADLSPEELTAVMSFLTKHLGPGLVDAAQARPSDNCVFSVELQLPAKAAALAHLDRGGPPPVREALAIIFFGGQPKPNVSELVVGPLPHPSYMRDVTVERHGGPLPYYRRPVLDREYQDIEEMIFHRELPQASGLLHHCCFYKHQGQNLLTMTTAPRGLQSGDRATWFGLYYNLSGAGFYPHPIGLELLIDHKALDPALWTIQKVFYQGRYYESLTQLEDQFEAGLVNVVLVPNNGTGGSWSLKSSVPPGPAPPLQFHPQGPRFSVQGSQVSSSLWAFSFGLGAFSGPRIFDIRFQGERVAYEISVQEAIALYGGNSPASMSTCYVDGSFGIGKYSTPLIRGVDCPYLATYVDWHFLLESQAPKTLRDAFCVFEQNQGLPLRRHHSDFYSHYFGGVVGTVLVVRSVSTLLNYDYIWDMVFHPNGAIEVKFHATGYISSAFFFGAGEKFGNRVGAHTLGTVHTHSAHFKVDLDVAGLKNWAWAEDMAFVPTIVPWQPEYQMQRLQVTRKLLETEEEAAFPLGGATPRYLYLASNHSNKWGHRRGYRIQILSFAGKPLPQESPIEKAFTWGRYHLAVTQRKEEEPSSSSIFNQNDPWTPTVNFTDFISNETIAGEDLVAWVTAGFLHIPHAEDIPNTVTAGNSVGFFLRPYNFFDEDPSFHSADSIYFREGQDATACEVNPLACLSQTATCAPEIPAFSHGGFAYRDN

Structure (SMILES) | tested on | assay | test system | setting | scale | endpoint | value
Cc1cc(Nc2ccc(S(F)(F)(F)(F)F)cc2)n2nc(C(C)(F)F)nc2n1 | Plasmodium vivax |  | human Plasmodium vivax malaria patients | oral, 800 mg |  | patients with any adverse event | 85.7%
COc1ccc(C=C2SC(=O)N(C(C)C(=O)O)C2=O)cc1 (stereo not shown) | USP13 ZnF-UBD domain |  |  |  |  | Kd | > 1000 µM
O=C1C(Br)=C(Br)C(=O)c2ccccc21 | Eruca sativa |  | seeds | 200 µg/mL, 168 h, 10% DMSO |  | germination inhibition | 94.1%
CCc1cc(C(=O)NC)c2nccc(N3CCc4c(cc(Cn5ccnc5)cc4-c4cn(C)nc4C(F)(F)F)C3=O)c2c1 |  |  | Sprague Dawley rats | oral, 100 mg/kg once daily, 7 days | reference: vehicle | serum MCV change | 1.78%
O=C(O)CNc1ncccn1 | USP13 ZnF-UBD domain |  |  |  |  | Kd | 616 µM
NCc1cc2c(cc1F)C(=O)N(C1CCC(=O)NC1=O)C2 (stereo not shown) | Amine oxidase [copper-containing] 3 (Mus musculus, UniProt O70423) | substrate, LC-MS/MS | recombinant mouse enzyme | 10 µM, 8 h, pH 7.4 |  | concentration | 1700 nM
CC[C@H](CO)N(CCN(N=O)[C@H](CC)CO)N=O | Salmonella typhimurium | mutagenicity, Ames plate incorporation | TA100 | 50 µg/plate, without S9, methanol |  | revertant colonies per plate | 154 ± 4
COc1cccc(-c2n[nH]c(SCc3ccccn3)n2)c1OC | primary human lymphocytes |  |  | 0.063 mg/mL, 3 h, together with: rat liver S9 |  | structural aberrations per 100 cells | 1
CC[C@@H]1[C@H](F)C(=O)N[C@@H]1COc1nccc2cc(C(N)=O)c(OC)cc12 | Aurora kinase A (AURKA, Homo sapiens, UniProt O14965) | ATP probe binding, KiNativ profiling, refers to: Lys2 probe site | THP-1 cell lysate | 0.01 mM |  | inhibition | -0.7%
Cc1cc(Nc2ncnc3ccc(NC4=NC(C)(C)CO4)cc23)ccc1Oc1ccn2ncnc2c1 | CYP3A4 |  | human, plasma | oral, 300 mg single dose, day 1, compound alone |  | Cmax (geometric mean) | 488 ng/mL
CC[C@H]1[C@@H](O)[C@@H]2[C@H](CC[C@]3(C)[C@@H]([C@H](C)CCNC(=O)NS(=O)(=O)c4ccc(C(C)(C)C)cc4)CC[C@@H]23)[C@@]2(C)CC[C@@H](O)C[C@@H]12 | CYP3A4 |  | human, plasma | dose not given, mean, alone |  | AUC(0-t) | 421 ng·h/mL
NC1(C(=O)N[C@@H](CCO)c2ccc(Cl)cc2)CCN(c2nc[nH]c3nccc2-3)CC1 |  |  | metastatic CRPC patients | 480 mg b.i.d., grade 3 to 4, treatment-related, together with: enzalutamide 160 mg daily |  | incidence of Dysgeusia | 0%
Cn1cc(-c2ccc(-c3cncc(Cl)c3N3CCC4(CCNC4=O)CC3)cc2)cn1 | COLO 205 | gene expression, microarray, refers to: TUBB3 mRNA |  | concentration not given, 6 h | reference: untreated cells | log2 fold change | 2.28

Excerpt of the above:
Structure (SMILES) | tested on | assay | test system | setting | scale | endpoint | value
O=C1C(Br)=C(Br)C(=O)c2ccccc21 | Eruca sativa |  | seeds | 200 µg/mL, 168 h, 10% DMSO |  | germination inhibition | 94.1%
CC[C@H]1[C@@H](O)[C@@H]2[C@H](CC[C@]3(C)[C@@H]([C@H](C)CCNC(=O)NS(=O)(=O)c4ccc(C(C)(C)C)cc4)CC[C@@H]23)[C@@]2(C)CC[C@@H](O)C[C@@H]12 | CYP3A4 |  | human, plasma | dose not given, mean, alone |  | AUC(0-t) | 421 ng·h/mL
